Experimental data gathered from unrelated publications.
Values joined by “and” are separate records of one study, mostly repeats; a detail may differ.

C#Cc1cc(-c2cc(Nc3nc(N[C@@H](C)c4ccc(F)cn4)ncc3Cl)n[nH]2)ccc1C=O  inhibition (PKC beta II kinase, human; enzyme activity; 0.2 µM): -12.8%
CC1(C)S[C@@H]2[C@H](NC(=O)[C@H](N)c3ccccc3)C(=O)N2[C@H]1C(=O)O  MIC (Stenotrophomonas maltophilia; broth microdilution; clinical isolate RKI-No 729/15): > 16 µg/mL
CCn1c(=O)c(-c2cc[nH]n2)cc2c(C)nc(N)nc21  gliosis score (enterovirus A71; suckling mouse, EV71-infected, brain; 0.25 mg/kg; direction not given): 0
Cn1cc(-c2ccc(-c3cncc(Cl)c3N3CCC4(CCNC4=O)CC3)cc2)cn1  fold change in expression (COLO 205; microarray, item: DBI; concentration not given, 2 h; reference: untreated cells): -2.49
c1coc(-c2n[nH]cc2-c2ccnc3ccccc23)c1  log2 fold change (MCK1 (Candida albicans); kinase binding, MIB/MS competition; Candida albicans lysate; 1 µM; reference: DMSO): -0.1
CN(C)[C@@H]1C(O)=C(C(N)=O)C(=O)[C@@]2(O)C(O)=C3C(=O)c4c(O)cccc4[C@@](C)(O)[C@H]3C[C@@H]12  DNA area (Bacillus subtilis; bacterial cytological profiling; ATCC 6633; concentration not given): 1.06 µm² and 0.98 µm² and 1.04 µm²
CCn1cc(-c2cc(Cn3ccoc3=N)cc3c2CCN([C@@H](C)c2cc(OC)ccn2)C3=O)c(C(F)(F)F)n1  EC50 (Granta-519; cell growth, inhibitor; 120 h): 0.143 µM
O=C(/C=C/C=C/C=C/C1CCCCC1)NC1=C[C@@](O)(/C=C/C=C/C=C/C(=O)NC2=C(O)CCC2=O)[C@@H]2O[C@@H]2C1=O  GI50 (OUMS-23; cell growth, CellTiter-Glo; 78 h): 8.36 µM
CC1(C)S[C@@H]2[C@H](NC(=O)[C@H](N)c3ccccc3)C(=O)N2[C@H]1C(=O)O  DNA perimeter (Bacillus subtilis; bacterial cytological profiling; ATCC 6633): 5.98 µm and 6.49 µm and 5.8 µm
CCn1cc(-c2cc(Cn3ccnc3)cc3c2CCN([C@H](c2cc(OC)ccn2)C2CC2)C3=O)c(C(F)(F)F)n1  EC50 (DU-4475; cell growth, inhibitor; 120 h): 3.01 µM
Oc1ccccc1-c1n[nH]cc1-c1ccnc2ccccc12  log2 fold change (PKH3 (Candida albicans); kinase binding, MIB/MS competition; Candida albicans lysate; 1 µM; reference: DMSO): 0.13
O=C(O)c1cn(C2CC2)c2cc(N3CCNCC3)c(F)cc2c1=O  DNA width (Bacillus subtilis; bacterial cytological profiling; ATCC 6633): 0.59 µm and 0.61 µm and 0.65 µm
COc1cnc2cccc(N3CCc4c(cc(Cn5ccnc5C)cc4-c4cn(C)nc4C(F)(F)F)C3=O)c2c1  EC50 (JHH5; cell growth; 120 h): > 30 µM
CC(C)n1ncc2c(C(=O)NCC3(C)CNC3)cc(C3CC3)nc21  plaque area (enterovirus A71; Tainan/4643/1998; 0.3 µM): 41.8% and 28.5%
CN[C@@H](C)C(=O)N[C@H]1CN(S(=O)(=O)c2cccc(S(=O)(=O)N3CC[C@H]4CC[C@@H](C(=O)NC(c5ccccc5)c5ccccc5)N4C(=O)[C@@H](NC(=O)[C@H](C)NC)C3)c2)CC[C@H]2CC[C@@H](C(=O)NC(c3ccccc3)c3ccccc3)N2C1=O  best response partial response (RECIST 1.1; advanced pancreatic cancer patients; dose not given, prior therapy, together with: AG): 16.7%
